Experimental data pooled from the literature.
Numbered parts are unrelated; each lists some results of a single study.
UniProt Q9UEE5, sequence (whole entry, looked up): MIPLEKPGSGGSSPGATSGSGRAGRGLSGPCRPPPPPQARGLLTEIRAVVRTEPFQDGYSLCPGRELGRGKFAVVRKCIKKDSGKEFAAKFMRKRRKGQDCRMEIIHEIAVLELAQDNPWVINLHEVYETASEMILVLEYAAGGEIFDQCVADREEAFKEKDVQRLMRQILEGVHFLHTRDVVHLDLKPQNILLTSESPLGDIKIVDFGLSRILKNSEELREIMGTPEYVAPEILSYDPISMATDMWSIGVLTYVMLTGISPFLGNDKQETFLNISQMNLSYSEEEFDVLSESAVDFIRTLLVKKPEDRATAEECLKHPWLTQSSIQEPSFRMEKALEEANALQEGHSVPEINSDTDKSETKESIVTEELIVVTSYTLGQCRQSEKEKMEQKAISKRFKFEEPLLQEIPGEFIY

Sample 1
Target: PABPC1L2, full length, GST fusion (mouse, UniProt A0ABA7IW68)
Technique: RNAcompete
Form: RNA
Sample: in vitro
Concentration: 20 nM
Notes: 7-mer, probes averaged, single round
Relative to: mean of 7-mers
Reading: higher = stronger binding
Construct (chain): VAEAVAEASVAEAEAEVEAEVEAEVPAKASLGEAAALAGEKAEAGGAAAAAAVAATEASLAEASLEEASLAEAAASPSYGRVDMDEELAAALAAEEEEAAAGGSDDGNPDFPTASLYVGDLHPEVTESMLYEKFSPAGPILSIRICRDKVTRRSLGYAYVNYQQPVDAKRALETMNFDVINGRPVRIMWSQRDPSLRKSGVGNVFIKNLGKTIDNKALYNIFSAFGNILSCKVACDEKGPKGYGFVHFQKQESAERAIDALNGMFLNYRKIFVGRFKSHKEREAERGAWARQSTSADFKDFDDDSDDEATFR
Oligonucleotide | 7-mer Z-score
GGUCACC | -0.0446
ACUACUA | -0.0391
GAUGACU | -0.26
UGCGGUG | -0.0373
AGACGGC | -0.0863
UCCUAAA | 0.579
AGGAGCG | 0.251
AUGUCUA | -0.144

Sample 2
Target: Prothrombin, mature alpha-thrombin (F2, Homo sapiens, UniProt P00734)
Technique: aptamer microarray, sandwich
Form: DNA with 2'F-ANA
Sample: in vitro
Concentration: 200 nM
Notes: whole 15-mer aptamer, many near background
With: Cy3 exosite-II aptamer, 400 nM
Reading: higher = stronger binding
Oligonucleotide: GGTTGGTGTGGTTGG
Modification | mean fluorescence intensity
2'F-ANA at 3 9 10 11 12 15 | 550 a.u.
2'F-ANA at 2 3 8 9 10 11 14 | 267 a.u.
2'F-ANA at 2 3 4 5 7 9 10 11 12 15 | 53.5 a.u.
2'F-ANA at 1 3 4 5 6 7 8 12 13 15 | 80.5 a.u.
2'F-ANA at 1 2 7 9 10 12 13 14 | 46.1 a.u.
2'F-ANA at 2 4 7 10 11 15 | 85.9 a.u.
2'F-ANA at 5 6 9 10 11 12 13 14 | 42.8 a.u.
2'F-ANA at 2 4 5 7 13 | 50.3 a.u.

Sample 3
Target: Hepatocyte nuclear factor 3-alpha (Foxa1, Mus musculus, UniProt P35582, residues 1-468, full length assumed)
Technique: EMSA with sequencing
Form: double-stranded DNA, one strand shown
Sample: in vitro
Concentration: 10 and 20 nM
Notes: whole designed probe, mean of two concentrations, ends assumed
Relative to: negative control set to 0
Reading: higher = stronger binding
Construct (chain): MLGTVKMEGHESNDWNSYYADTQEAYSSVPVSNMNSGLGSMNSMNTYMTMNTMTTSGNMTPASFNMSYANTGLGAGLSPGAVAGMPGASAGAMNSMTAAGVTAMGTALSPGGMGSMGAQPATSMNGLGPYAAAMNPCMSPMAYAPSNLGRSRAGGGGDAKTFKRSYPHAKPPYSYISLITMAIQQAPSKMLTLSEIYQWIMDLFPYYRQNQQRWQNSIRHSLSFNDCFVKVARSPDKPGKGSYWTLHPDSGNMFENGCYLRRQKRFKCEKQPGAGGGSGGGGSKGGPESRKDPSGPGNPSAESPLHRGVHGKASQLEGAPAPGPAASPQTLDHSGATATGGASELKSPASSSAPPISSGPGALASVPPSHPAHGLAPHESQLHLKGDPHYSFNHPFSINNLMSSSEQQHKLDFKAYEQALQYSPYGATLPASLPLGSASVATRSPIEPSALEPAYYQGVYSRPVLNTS
Oligonucleotide | normalised bound fraction [ratio]
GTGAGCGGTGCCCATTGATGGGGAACTGAACAGATTAGCTGATCTCTAATGGCCCTAGGAGAAGATCTTGTATTGCTTCAAAATCTTTTCTGATTCTCATCACTCAACCTTCTTGGCTATGTAAACAAAGGAAGCTTTCCTTTTGTTTTCCAGACGTTTGGAAAACAAAATTTTCCAGAGCTGTGCATCTGCCAGGAAATGTTTCTTTTAACCTGATATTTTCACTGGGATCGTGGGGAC | 0.492
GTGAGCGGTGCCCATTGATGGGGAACAGAGGAATCCCAGAGAGCTGTTCTTTACAGTTTTGTTTCTTGTTTAAATTCGAGAACTAAAAATCCAGTCCCAGAGTGCGTACATAGTCAAAGCAAACATGGAAAGTTCAGAAGTTATGCAGTGAACCATCAGAGCCTATTAAGAATCTAATCTTTCTCCAAGTAATGTTGGGGTCAGGCAGCTAACTGCAACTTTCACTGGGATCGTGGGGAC | 0.194
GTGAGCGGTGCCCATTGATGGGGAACGATATTTGCAATCAATCTACTAGTTAACTATAAATGGAACAATGTACTTTCTTCCTTTCTCCAAACTGGAGAAGAGACTTTTAGAAGAATCTGAGTAATCTGGAAAACTTAGTCTTATCTTACAAGTCAAGGAAGCAGTTATTAAGAACATATGGATAAGCATGAAATCAAATCTTATTCTCTGCAAAGGAGCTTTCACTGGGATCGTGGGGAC | -0.0351
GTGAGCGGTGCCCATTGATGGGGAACATCTTCCCCCTCTTCCTTGCCCCACCAGCTCACCTACGGGGGTTATTTGCAGATAGGAAAATAAATAAAGCCGGCATTCGTTAACCCTCTTCACGCGCATACTGCTGTTTGCTCTGCATCTAACATGGTCCTTACGCGAGGCGTGGCTCCGGGAGAGCAAAGCACCGTGTCAGGCGCATGATCCGGGCTCGCCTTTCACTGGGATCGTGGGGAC | 0.35
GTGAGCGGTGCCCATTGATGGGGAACCCAGGGACAATGTGCAGTTGTTGGTCCTGGGTCTTTGACAGACTCCAGGTCAAAGGCAAGACACCGTGAGAAGGGAAAGGATCAAGTCTGTGAGCAATCTCCATCAGCCTTGCAATTTGATGGTGGCCTCAAGGAGACATTGGGCGTGTGTTTAAACAAGCAAGGAAGGCAGCTGTACAAGTGCCCTAATCTGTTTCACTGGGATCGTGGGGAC | 0.157
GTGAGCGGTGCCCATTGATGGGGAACATCCACGAACCTGGCCCTGTCTGGTAACCACAGTGAACCATCGCAAGATACAGCACTATGTGCCCAGTTGGGCTGGTAATGTCACACAAATGTGTCAACACTGGCACATCCTTAATGACTCACAAGTGTACTTGTTTTTGGAGAGGGACTAGACCTTCATCCTTGAGGTGAAGAAGATTTTCTCTCCAGGGTGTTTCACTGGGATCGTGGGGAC | 0.0519
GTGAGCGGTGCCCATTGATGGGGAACATCTTCCCCCTCTTCCTTGCCCCACCAGCTCACCTTCCCGGGTATCTGCAAATAAGTATTTATTTTCAAGCCGGCATTCGTTAACCCTCTTCACGCGCATACTGCACATTGGTCTGGATCTAACATGGTCCTTTGGCGACGCCAGGCTCCGGGAGAGCAAAGCACCGTGTCAGGGCCATGATCCGGGGTGGCCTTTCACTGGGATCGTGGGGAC | 0.141
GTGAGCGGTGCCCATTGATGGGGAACGATAGAGAAGATGTTTCTAAAGGGACAAGAAAGAGTTGGATTTCAGAAAACAAATTACATATATCTAGTCCTATATGCCTTTAAAAAATTCTTGTTTACTTTTCTTTTCTGTCGTACTACACAGAGCCTGTGTAGTAAGTTTTCCAGGTCTGTTTTTTTGTTGTTGCTGTTGTTTTGTTTTTAATTGGATCATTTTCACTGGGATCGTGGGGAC | 0.465

Other studies, line by line
Compound | target | observed | action | concentration | relative to | endpoint | value
COc1cc2ncnc(Nc3cccc(Cl)c3)c2cc1OC | Serine/threonine-protein kinase 17A (STK17A, Homo sapiens, UniProt Q9UEE5) | enzyme activity | inhibitor | 0.5 µM | control | remaining activity | 95.4%
